Assay results collected from several papers.
Protocols differ between the studies behind these lines. ± marks the error that the study gave.
B1: GcL (Parageobacillus, UniProt A0A023DFE8); chain MANVIKARPKLYVMDNGRMRMDKNWMIAMHNPATIHNPNAQTEFVEFPIYTVLIDHPEGKILFDTSCNPNSMGPQGRWAESTQQMFPWTATEECYLHNRLEQLKVRPEDIRYVVASHLHLDHAGCLEMFTNATIIVHEDEFNGALQCYARNQKEGAYIWADIDAWIKNNLQWRTVKRHEDNILLAEGVKVLNFGSGHAWGMLGLHVELPETGGIILASDAIYTAESYGPPIKPPGIIYDSLGYMNTVERIRRIAQETKSQVWFGHDAEQFKKFRKSTEGYYE
B2: bglA A17S/S39T/T105V (Acetivibrio thermocellus, UniProt P26208); chain MSKITFPKDFIWGSATSAYQIEGAYNEDGKGESIWDRFTHTPGNIADGHTGDVACDHYHRYEEDIKIMKEIGIKSYRFSISWPRIFPEGTGKLNQKGLDFYKRLVNLLLENGIMPAITLYHWDLPQKLQDKGGWKNRDTTDYFTEYSEVIFKNLGDIVPIWFTHNEPGVVSLLGHFLGIHAPGIKDLRTSLEVSHNLLLSHGKAVKLFREMNIDAQIGIALNLSYHYPASEKAEDIEAAELSFSLAGRWYLDPVLKGRYPENALKLYKKKGIELSFPEDDLKLISQPIDFIAFNNYSSEFIKYDPSSESGFSPANSILEKFEKTDMGWIIYPEGLYDLLMLLDRDYGKPNIVISENGAAFKDEIGSNGKIEDTKRIQYLKDYLTQAHRAIQDGVNLKAYYLWSLLDNFEWAYGYNKRFGIVHVNFDTLERKIKDSGYWYKEVIKNNGF
B3: enzyme (Enterococcus faecalis, UniProt Q836M4); chain MEIHFEKVTSDNRKAVENLQVFAEQQAFIESMAENLKESDQFPEWESAGIYDGNQLIGYAMYGRWQDGRVWLDRFLIDQRFQGQGYGKAACRLLMLKLIEKYQTNKLYLSVYDTNSSAIRLYQQLGFVFNGELDTNGERVMEWTHQNK
B4: bglA A17S (Acetivibrio thermocellus, UniProt P26208); chain MSKITFPKDFIWGSATSAYQIEGAYNEDGKGESIWDRFSHTPGNIADGHTGDVACDHYHRYEEDIKIMKEIGIKSYRFSISWPRIFPEGTGKLNQKGLDFYKRLTNLLLENGIMPAITLYHWDLPQKLQDKGGWKNRDTTDYFTEYSEVIFKNLGDIVPIWFTHNEPGVVSLLGHFLGIHAPGIKDLRTSLEVSHNLLLSHGKAVKLFREMNIDAQIGIALNLSYHYPASEKAEDIEAAELSFSLAGRWYLDPVLKGRYPENALKLYKKKGIELSFPEDDLKLISQPIDFIAFNNYSSEFIKYDPSSESGFSPANSILEKFEKTDMGWIIYPEGLYDLLMLLDRDYGKPNIVISENGAAFKDEIGSNGKIEDTKRIQYLKDYLTQAHRAIQDGVNLKAYYLWSLLDNFEWAYGYNKRFGIVHVNFDTLERKIKDSGYWYKEVIKNNGF
Sequence of UniProt A6TH53 (whole entry, looked up): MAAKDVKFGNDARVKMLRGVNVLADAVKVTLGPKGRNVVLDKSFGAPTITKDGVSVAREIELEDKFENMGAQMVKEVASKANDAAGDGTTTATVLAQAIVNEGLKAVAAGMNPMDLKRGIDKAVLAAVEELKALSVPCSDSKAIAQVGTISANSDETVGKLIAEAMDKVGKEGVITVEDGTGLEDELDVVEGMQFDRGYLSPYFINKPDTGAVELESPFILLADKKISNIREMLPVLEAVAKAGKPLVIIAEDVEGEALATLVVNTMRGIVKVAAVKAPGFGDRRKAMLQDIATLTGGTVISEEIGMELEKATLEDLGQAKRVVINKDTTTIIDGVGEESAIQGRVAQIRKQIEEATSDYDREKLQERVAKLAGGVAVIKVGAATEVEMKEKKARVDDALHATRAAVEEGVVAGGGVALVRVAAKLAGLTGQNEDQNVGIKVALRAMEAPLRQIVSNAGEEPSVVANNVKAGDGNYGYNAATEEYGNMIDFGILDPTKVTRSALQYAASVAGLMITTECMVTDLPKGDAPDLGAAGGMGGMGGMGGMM
Sequence of UniProt O95551 (whole entry, looked up): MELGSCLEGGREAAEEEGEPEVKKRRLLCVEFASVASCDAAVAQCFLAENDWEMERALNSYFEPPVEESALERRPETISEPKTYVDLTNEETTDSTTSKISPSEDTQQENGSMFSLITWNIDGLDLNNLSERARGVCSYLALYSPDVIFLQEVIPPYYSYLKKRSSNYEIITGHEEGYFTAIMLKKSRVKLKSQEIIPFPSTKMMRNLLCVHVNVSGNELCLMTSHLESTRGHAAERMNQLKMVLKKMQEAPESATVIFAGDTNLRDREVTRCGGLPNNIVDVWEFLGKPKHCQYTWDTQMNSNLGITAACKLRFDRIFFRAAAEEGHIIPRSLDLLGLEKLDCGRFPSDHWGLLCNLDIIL

The kcat/Km of `B1 (GcL)` is reported as 34000 ± 10000 M⁻¹ s⁻¹ (CCCC(=O)N[C@H]1CCOC1=O; steady-state kinetics; pH 8.3, added: CoCl2 0.2 mM).
With `fcl (Campylobacter jejuni, UniProt F2X7A6)` the kcat/Km was 270000 M⁻¹ s⁻¹ (Nc1nc2c(ncn2[C@@H]2O[C@H](COP(=O)(O)OP(=O)(O)O[C@H]3O[C@@H](CCO)C(=O)[C@H](O)[C@@H]3O)[C@@H](O)[C@H]2O)c(=O)[nH]1; steady-state kinetics; pH 7.5, 25 °C, apparent).
For `rCR L137V (Lodderomyces parapsilosis)`, the kcat/Km was 9900 M⁻¹ s⁻¹ (CC(=O)c1ccc(Cl)cc1; steady-state kinetics; pH 7, 30 °C, added: NADH 0.5 mM).
`Cj1438c (Campylobacter jejuni, UniProt Q0P8H6)` has a kcat/Km of 51000 ± 5000 M⁻¹ s⁻¹ (N[C@@H](CO)COP(=O)(O)O; steady-state kinetics; pH 8, 25 °C, apparent).
For `TDP2 (Homo sapiens, UniProt O95551)`, the kcat/Km was 556 M⁻¹ s⁻¹ (Cc1cn([C@H]2C[C@H](O)[C@@H](COP(=O)(O)Oc3ccc([N+](=O)[O-])cc3)O2)c(=O)[nH]c1=O; steady-state kinetics).
`B2 (bglA A17S/S39T/T105V)` gave a kcat/Km of 61200 ± 3600 M⁻¹ s⁻¹ (O=[N+]([O-])c1ccc(O[C@@H]2O[C@H](CO)[C@@H](O)[C@H](O)[C@H]2O)cc1; steady-state kinetics; pH 5.5, 60 °C).
The kcat/Km of `enzyme (Klebsiella pneumoniae, UniProt A6TH53)` is reported as 1350 M⁻¹ s⁻¹ (Nc1ncnc2c1ncn2[C@@H]1O[C@H](COP(=O)(O)OP(=O)(O)OP(=O)(O)O)[C@@H](O)[C@H]1O; steady-state kinetics; pH 7.4, 24 °C, apparent, per site).
With `B3 (enzyme)` the kcat/Km was 130000 M⁻¹ s⁻¹ (CC(=O)SCCNC(=O)CCNC(=O)[C@H](O)C(C)(C)COP(=O)(O)OP(=O)(O)OC[C@H]1O[C@@H](n2cnc3c(N)ncnc32)[C@H](O)[C@@H]1OP(=O)(O)O; steady-state kinetics; pH 8, 37 °C, Hill n 1.36, added: spermine 1 mM).
`B4 (bglA A17S)` has a kcat/Km of 131000 ± 14000 M⁻¹ s⁻¹ (O=[N+]([O-])c1ccc(O[C@@H]2O[C@H](CO)[C@@H](O)[C@H](O)[C@H]2O)cc1; steady-state kinetics; pH 5.5, 60 °C).
`insulin human` has a fold change of 1.08 (measured: CAMK4 mRNA; EcoHIV-infected mouse, brain; i.p., dose not given; baseline: PBS).

Repeated from above:
For `rCR L137V (Lodderomyces parapsilosis)`, the kcat/Km was 9900 M⁻¹ s⁻¹ (CC(=O)c1ccc(Cl)cc1; steady-state kinetics; pH 7, 30 °C, added: NADH 0.5 mM).
